# Results of several laboratories.
# A part holds a random share of what one study measured. Changes are numbered by the printed parent chain.

# Set 1
# Target: Sal-like protein 4, full length isoform B (SALL4, Homo sapiens, UniProt Q9UJQ4-2, residues 1-616)
# Technique: universal PBM
# Form: double-stranded DNA, one strand shown
# Sample: in vitro
# Tested at: not given
# Setting: 8-mer, flanks averaged, mean of replicates
# Reading: higher = stronger binding
# Target sequence (chain): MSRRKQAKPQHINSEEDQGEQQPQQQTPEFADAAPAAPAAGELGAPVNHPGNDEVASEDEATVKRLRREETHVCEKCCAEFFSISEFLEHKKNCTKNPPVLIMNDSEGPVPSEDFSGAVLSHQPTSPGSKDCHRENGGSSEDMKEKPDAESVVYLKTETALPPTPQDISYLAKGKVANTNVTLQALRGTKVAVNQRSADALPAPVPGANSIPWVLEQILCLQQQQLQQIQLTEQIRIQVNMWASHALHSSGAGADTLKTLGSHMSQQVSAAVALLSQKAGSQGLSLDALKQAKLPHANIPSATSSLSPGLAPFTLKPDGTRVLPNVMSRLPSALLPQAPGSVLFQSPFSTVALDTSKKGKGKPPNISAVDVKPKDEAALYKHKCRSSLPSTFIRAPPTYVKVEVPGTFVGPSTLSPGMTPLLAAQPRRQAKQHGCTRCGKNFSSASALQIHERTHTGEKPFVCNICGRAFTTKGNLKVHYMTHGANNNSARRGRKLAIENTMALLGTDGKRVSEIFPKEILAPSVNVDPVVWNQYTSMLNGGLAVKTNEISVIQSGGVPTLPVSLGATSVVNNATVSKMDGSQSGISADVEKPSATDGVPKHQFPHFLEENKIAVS
Oligonucleotide,E-score
CTATGCAA,0.116
ACGCTCAC,-0.119
TACACTAA,0.208
TAGTCTGA,-0.066
GGACCGAA,-0.0134
CGTAGTTA,0.273
TAATTCCA,0.193
AGAGCTCA,-0.14
ACACCCGT,-0.203
GCACGCAA,-0.225
TACAGCGA,-0.0141
GGTCATAA,0.315
ACAGTGGT,-0.0118
ATGCTCTC,-0.0603
ATCCAGTC,-0.0967
CTCCCGCA,-0.193
AACTGGGG,-0.165
GCTTCATA,0.096
CATTTCTA,0.21
ATCTGAGG,-0.0345

# Set 2
# Target: CCNB2, cyclin fold, Cln2 fusion (human)
# Technique: yeast growth competition, sequencing
# Sample: yeast
# Setting: strong parent motif
# Reference: not given
# Reading: higher = stronger binding
# Starting sequence: MICAL3 docking peptide (human); LQLRRQLSFSEDS; partner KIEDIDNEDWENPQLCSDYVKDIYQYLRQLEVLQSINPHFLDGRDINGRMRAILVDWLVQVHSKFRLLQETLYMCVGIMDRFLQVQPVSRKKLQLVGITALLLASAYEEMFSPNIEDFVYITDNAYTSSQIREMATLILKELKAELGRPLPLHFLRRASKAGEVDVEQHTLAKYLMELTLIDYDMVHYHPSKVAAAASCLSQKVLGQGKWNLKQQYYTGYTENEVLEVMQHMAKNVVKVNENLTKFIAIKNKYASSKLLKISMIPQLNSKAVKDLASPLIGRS
Change,normalised enrichment score
LQLRRQLSFSEVS [D12V],3.17
LQYRRQLSFSEDS [L3Y],0.485
LQLRRQLSISEDS [F9I],-0.0569
LQERRQLSFSEDS [L3E],0.0154
LQLRRQLSFPEDS [S10P],0.93
LQLRRQLHFSEDS [S8H],1.82
LQLRRQLSFVEDS [S10V],1.03
LQLRRQMSFSEDS [L7M],1.01
LQLRRQLSFSWDS [E11W],1.18
LQLRRQDSFSEDS [L7D],-0.403
LQLRRQLSFLEDS [S10L],1.26
LQWRRQLSFSEDS [L3W],0.323
LVLRRQLSFSEDS [Q2V],2.89
LQLRRQLSFSEFS [D12F],2.58
LQLRRQLSFSLDS [E11L],2.18
LQLRRQLSFKEDS [S10K],1.44
LQLRRMLSFSEDS [Q6M],2.05
LQLREQLSFSEDS [R5E],-0.139
LALRRQLSFSEDS [Q2A],3.04
LQLRRQLSFHEDS [S10H],1.46
LQLRRQLSFQEDS [S10Q],1.36
LQLRRQLSTSEDS [F9T],-0.105
LQLRRQLSFSESS [D12S],2.67

# Set 3
# Target: ABI1, truncated, D143A, DHFR fusion (Arabidopsis thaliana)
# Technique: DHFR PCA, deep sequencing
# Sample: yeast
# Setting: methotrexate growth selection, single substitutions
# Together with: (+)-ABA 1.4 µM
# Reference: wild-type fitted maximum
# Reading: higher = stronger binding
# Starting sequence: PYL1, truncated, DHFR fusion (Arabidopsis thaliana); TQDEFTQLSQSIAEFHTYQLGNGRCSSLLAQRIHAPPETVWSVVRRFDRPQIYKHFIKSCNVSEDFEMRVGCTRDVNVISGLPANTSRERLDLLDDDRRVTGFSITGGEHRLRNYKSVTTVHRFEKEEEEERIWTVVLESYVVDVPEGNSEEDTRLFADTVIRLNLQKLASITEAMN; partner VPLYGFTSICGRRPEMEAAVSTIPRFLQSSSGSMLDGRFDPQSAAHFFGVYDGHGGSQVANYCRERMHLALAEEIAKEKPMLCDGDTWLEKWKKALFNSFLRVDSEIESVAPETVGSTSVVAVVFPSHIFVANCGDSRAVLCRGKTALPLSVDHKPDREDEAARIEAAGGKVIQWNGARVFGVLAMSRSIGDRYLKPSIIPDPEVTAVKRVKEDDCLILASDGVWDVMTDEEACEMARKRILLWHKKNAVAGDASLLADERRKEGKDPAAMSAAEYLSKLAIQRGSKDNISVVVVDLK
Change,relative binding score [%]
E151Y,16.9
D97Q,65.1
V100M,20.3
F5M,68.9
R88A,24.1
E151D,34.7
R99A,9.51
L156Y,12.9
G81M,-3
E67L,22.1
D75N,58.2
R46Y,-34.2
T101Q,-3.25
L28G,11.7
T160M,27.5

# Set 4
# Target: JUN, bZIP domain (human)
# Technique: DHFR protein complementation
# Sample: yeast
# Setting: single substitutions, most at no-binding floor
# Reference: wild-type JUN-FOS pair
# Reading: higher = stronger binding
# Starting sequence: JUN, bZIP domain (human); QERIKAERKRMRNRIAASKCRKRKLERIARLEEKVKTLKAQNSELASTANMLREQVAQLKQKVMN
Change,binding fitness [natural log]
L52Q,-1.46
L45H,-1.28
Q41P,-1.48
E44P,-1.32
S47P,-1.35
L38F,-1.26
L45K,-1.33
L38A,-1.31
A57P,-1.38

# Set 5
# Target: Ras GTPase-activating protein-binding protein 1, C-terminal RGG region (G3BP1, Homo sapiens, UniProt Q13283)
# Sequence of UniProt Q13283 (whole entry, looked up): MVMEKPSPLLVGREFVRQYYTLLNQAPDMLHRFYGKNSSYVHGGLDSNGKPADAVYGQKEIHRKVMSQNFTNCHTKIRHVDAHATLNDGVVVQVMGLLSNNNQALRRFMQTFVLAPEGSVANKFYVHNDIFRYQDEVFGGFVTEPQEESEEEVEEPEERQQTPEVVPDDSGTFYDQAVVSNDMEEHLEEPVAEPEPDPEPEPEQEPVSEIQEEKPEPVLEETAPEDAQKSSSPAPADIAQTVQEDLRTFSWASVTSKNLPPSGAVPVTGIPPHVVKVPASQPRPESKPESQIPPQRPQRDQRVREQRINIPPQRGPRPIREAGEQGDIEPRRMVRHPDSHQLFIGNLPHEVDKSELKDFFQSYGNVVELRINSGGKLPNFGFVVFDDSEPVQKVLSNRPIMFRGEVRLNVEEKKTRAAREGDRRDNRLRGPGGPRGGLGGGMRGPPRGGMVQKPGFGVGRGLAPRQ
# Technique: RNA Bind-n-Seq
# Form: RNA
# Sample: in vitro
# Tested at: 1 µM
# Setting: whole 134-nt RNA, ends assumed
# Together with: 150 mM KCl
# Reference: input library
# Reading: higher = stronger binding
# All sequences stand within: GGGAGUUCUACAGUCCGACGAUC … UGGAAUUCUCGGGUGUCAAGG
Oligonucleotide,log2 enrichment
CCUGUGCUACACAUCGUAUGUACCGAAUCGGCCCCCCCGGGCCCCCCCGGGGCCCCCCCGGAAAGUAUUAUGUUACGCCGUUCGGAUCUG,-1.49
GUCCUGUGCUACACAUCGUAUGUACCGAAUCGUGUGUGUGUGUGUGUGUGUGUGUGUGUAAAGUAUUAUGUUACGCCGUUCGGAUCUGCA,1.5
CUCAAGUCCUGUGCUACACAUCGUAUGUACCGAAUCGGUUUGGUGGUUUUUGGAAAGUAUUAUGUUACGCCGUUCGGAUCUGCACUUCCA,-0.763
UCAAGUCCUGUGCUACACAUCGUAUGUACCGAAUCGGAAGGGAAGGGGAAGGGGAAAGUAUUAUGUUACGCCGUUCGGAUCUGCACUUCC,0.487
CACAGACAACACGCACUCACACAGACACAGAGGGAAGGGGUUGGGAUGGGGACAGGGUGCACAGCAGGGCGGGGUAGGACCCCAGCCCCU,-0.253
AGUCCUGUGCUACACAUCGUAUGUACCGAAUCGGGGAAAAAGGGGAAAGGGGAGGGGAAAGUAUUAUGUUACGCCGUUCGGAUCUGCACU,2.38
CUCAAGUCCUGUGCUACACAUCGUAUGUACCGAAUCGGGCCGGGGCCGGGCCGGAAAGUAUUAUGUUACGCCGUUCGGAUCUGCACUUCC,-1.63
CAAGUCCUGUGCUACACAUCGUAUGUACCGAAUCGGCCCCGGCCCCGGGGCCCCGGAAAGUAUUAUGUUACGCCGUUCGGAUCUGCACUU,-1.84
AAGUCCUGUGCUACACAUCGUAUGUACCGAAUCGGAAAAGGGGAAAAGGAAAAGGGAAAGUAUUAUGUUACGCCGUUCGGAUCUGCACUU,-1.51
